Results collected from several papers.
Numbers after ± are the reported error.

CC[C@H](C)[C@H](NC(=O)[C@H](CCCNC(=N)N)NC(=O)[C@H](CCC(N)=O)NC(=O)[C@H](CC(=O)O)NC(=O)[C@H](CC(C)C)NC(=O)[C@H](CC(C)C)NC(=O)[C@H](CC(N)=O)NC(=O)[C@H](Cc1ccccc1)NC(=O)[C@H](CC(=O)O)NC(=O)[C@@H](NC(=O)[C@@H](NC(=O)[C@H](CC(N)=O)NC(=O)CNC(=O)[C@H](CO)NC(C)=O)C(C)C)[C@@H](C)CC)C(=O)N[C@H](C(=O)N[C@@H](Cc1c[nH]c2ccccc12)C(=O)N[C@@H](CCC(N)=O)C(=O)N[C@@H](CC(N)=O)C(=O)N[C@@H](Cc1c[nH]c2ccccc12)C(=O)N[C@@H](Cc1ccc(O)cc1)C(=O)N[C@@H](C)C(N)=O)[C@@H](C)CC
α4β7+ CCR9− cells (refers to: HA-02 tetramer; antigen-experienced tetramer+ CD4 T cells, healthy adults, HLA-DRB1*0101; dose not given): 85.7%

CCc1c2c(nc3ccc(O)cc13)-c1cc3c(c(=O)n1C2)COC(=O)[C@@]3(CC)OC(=O)[C@H](N)C(C)C
survival extension (mice, orthotopic CT26 colon cancer; i.v., dose not given; baseline: irinotecan): ≥ 2 weeks

CC[C@H](C)[C@H](NC(=O)[C@H](Cc1c[nH]c2ccccc12)NC(=O)[C@H](CCCNC(=N)N)NC(=O)[C@H](CCCCN)NC(=O)[C@H](CC(C)C)NC(=O)[C@H](CC(=O)O)NC(=O)[C@H](Cc1ccccc1)NC(=O)[C@H](C)NC(=O)[C@H](Cc1ccc(O)cc1)NC(=O)[C@H](CC(N)=O)NC(=O)[C@H](Cc1ccc(O)cc1)NC(=O)[C@H](CCCNC(=N)N)NC(=O)[C@H](Cc1ccc(O)cc1)NC(=O)[C@H](Cc1ccc(O)cc1)NC(=O)[C@@H](NC(=O)[C@H](CC(C)C)NC(=O)[C@H](C)NC(=O)[C@H](CC(N)=O)NC(=O)[C@H](Cc1ccc(O)cc1)NC(C)=O)[C@@H](C)CC)C(=O)N[C@@H](Cc1ccc(O)cc1)C(=O)N[C@@H](CC(C)C)C(N)=O
α4β7+ CCR9+ cells (refers to: HA-51 tetramer; antigen-experienced tetramer+ CD4 T cells, healthy adults, HLA-DRB1*0101; dose not given): 12.5%

CC[C@@]1(O)C(=O)OCc2c1cc1n(c2=O)Cc2cc3cc(OC(=O)CCCC(=O)NCC(=O)N[C@@H](Cc4ccccc4)C(=O)N[C@@H](Cc4ccccc4)C(=O)N[C@@H](Cc4ccc(OP(=O)(O)O)cc4)C(=O)NCCSSCCNC(=O)CCC(=O)N[C@@H](CCC(=O)O)C(=O)N[C@@H](CCCNC(=N)N)C(=O)NCC(=O)N[C@@H](CC(=O)O)C(=O)O)ccc3nc2-1
tumour volume (nude mice, HepG2 xenograft; intravenous, 3 mg/kg HCPT equivalent, three doses, initial 300 mm^3): ~103 mm³

Cc1ccc(/C=C/C(=O)O)cc1-c1cc2c(cc1C)C(C)(C)CCC2(C)C
log2 fold change (RNA sequencing, refers to: Rbp1; rat, brain; dose not given, 24 h; baseline: vehicle): -0.19

CCOP(=O)(OCC)OCCCCOC(=O)CC1=C(C)C(=Cc2ccc([S+](C)[O-])cc2)c2ccc(F)cc21 (stereo not drawn)
plasma 8-iso-PGF2α level (ELISA; mice, orthotopic lung tumour, plasma; inhalation, dose not given; baseline: control): > 2 fold

CC[C@H](C)[C@H](NC(=O)CNC(=O)[C@H](CC(=O)O)NC(=O)[C@H](CCCNC(=N)N)NC(=O)[C@@H](NC(=O)[C@H](CC(N)=O)NC(=O)[C@H](CCC(N)=O)NC(=O)CNC(=O)[C@@H](NC(=O)[C@H](CCCCN)NC(=O)[C@H](CCC(=O)O)NC(=O)[C@@H](NC(=O)[C@H](CCCCN)NC(=O)[C@H](CCCCN)NC(=O)[C@H](Cc1ccccc1)NC(=O)[C@H](CC(C)C)NC(=O)[C@H](CCCCN)NC(=O)[C@H](Cc1c[nH]c2ccccc12)NC(=O)[C@@H](N)CCCCN)[C@@H](C)CC)C(C)C)[C@@H](C)CC)C(=O)N[C@H](C(=O)N[C@@H](CCCCN)C(=O)N[C@@H](C)C(=O)NCC(=O)N1CCC[C@H]1C(=O)N[C@@H](C)C(=O)N[C@H](C(=O)N[C@@H](C)C(=O)N[C@H](C(=O)N[C@H](C(=O)NCC(=O)N[C@@H](CCC(N)=O)C(=O)N[C@@H](C)C(=O)N[C@H](C(=O)N[C@@H](CCC(N)=O)C(=O)N[C@H](C(=O)N[C@@H](C)C(=O)N[C@@H](CCCCN)C(N)=O)[C@@H](C)CC)[C@@H](C)O)C(C)C)C(C)C)C(C)C)[C@@H](C)CC
time constant (carboxyfluorescein release, stopped-flow fluorescence; POPC vesicles 50 µM; up to 1 µM, pH 7.5, peptide/lipid 1:50): ~15000 s

O=C(O)/C=C/c1cc(O)cc(O)c1
inhibition (DPPH radical scavenging; 500 µg/mL): 73.2 ± 1.17%

CCN(C(=O)c1cc(F)ccc1Oc1nncnc1N1CCC2(C1)CN([C@H](CCCN(C)CCOC)C(C)C)C2)C(C)C
median survival (mouse, sample A AML PDX; dose not given, all dose levels): > 147 days
